# Measurements of several laboratories.
# Protocols differ between the studies behind these lines. Several values in a cell are separate wells, animals, samples, runs or records.
# U2AF2: U2AF2 148-342 (Homo sapiens, UniProt P26368)
# UniProt P26368, sequence (whole entry, looked up): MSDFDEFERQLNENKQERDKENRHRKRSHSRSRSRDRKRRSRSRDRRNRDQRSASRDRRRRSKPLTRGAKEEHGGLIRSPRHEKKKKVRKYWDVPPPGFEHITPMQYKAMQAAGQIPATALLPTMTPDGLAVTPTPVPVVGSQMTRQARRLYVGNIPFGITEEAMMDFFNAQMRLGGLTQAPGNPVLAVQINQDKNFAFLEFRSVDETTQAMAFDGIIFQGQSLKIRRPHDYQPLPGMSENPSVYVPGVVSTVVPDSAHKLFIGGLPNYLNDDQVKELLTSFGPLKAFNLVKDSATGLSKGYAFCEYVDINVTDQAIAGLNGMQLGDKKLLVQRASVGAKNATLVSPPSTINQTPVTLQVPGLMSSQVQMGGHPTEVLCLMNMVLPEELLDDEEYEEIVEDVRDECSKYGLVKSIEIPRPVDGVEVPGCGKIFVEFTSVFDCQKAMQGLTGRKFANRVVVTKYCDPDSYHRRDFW
# T1: itself; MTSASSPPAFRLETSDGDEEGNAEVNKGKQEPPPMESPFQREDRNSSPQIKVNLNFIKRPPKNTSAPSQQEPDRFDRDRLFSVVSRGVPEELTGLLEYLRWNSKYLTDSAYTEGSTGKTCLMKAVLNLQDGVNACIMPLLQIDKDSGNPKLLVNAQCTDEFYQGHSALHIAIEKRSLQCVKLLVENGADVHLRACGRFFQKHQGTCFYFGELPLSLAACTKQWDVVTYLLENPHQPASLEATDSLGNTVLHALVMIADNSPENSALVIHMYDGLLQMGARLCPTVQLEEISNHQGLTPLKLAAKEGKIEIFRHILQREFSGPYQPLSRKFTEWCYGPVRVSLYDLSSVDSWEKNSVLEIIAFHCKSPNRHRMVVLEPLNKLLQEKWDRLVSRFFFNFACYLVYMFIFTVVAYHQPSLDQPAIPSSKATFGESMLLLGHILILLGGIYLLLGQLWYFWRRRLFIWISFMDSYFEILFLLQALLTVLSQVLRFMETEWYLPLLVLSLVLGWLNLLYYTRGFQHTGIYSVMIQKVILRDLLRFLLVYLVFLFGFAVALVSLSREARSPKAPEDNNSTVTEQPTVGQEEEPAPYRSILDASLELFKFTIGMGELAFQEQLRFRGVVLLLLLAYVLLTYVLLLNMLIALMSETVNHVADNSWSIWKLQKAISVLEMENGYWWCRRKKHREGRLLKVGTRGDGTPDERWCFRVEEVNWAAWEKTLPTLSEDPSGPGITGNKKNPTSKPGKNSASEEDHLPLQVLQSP
# T2: itself; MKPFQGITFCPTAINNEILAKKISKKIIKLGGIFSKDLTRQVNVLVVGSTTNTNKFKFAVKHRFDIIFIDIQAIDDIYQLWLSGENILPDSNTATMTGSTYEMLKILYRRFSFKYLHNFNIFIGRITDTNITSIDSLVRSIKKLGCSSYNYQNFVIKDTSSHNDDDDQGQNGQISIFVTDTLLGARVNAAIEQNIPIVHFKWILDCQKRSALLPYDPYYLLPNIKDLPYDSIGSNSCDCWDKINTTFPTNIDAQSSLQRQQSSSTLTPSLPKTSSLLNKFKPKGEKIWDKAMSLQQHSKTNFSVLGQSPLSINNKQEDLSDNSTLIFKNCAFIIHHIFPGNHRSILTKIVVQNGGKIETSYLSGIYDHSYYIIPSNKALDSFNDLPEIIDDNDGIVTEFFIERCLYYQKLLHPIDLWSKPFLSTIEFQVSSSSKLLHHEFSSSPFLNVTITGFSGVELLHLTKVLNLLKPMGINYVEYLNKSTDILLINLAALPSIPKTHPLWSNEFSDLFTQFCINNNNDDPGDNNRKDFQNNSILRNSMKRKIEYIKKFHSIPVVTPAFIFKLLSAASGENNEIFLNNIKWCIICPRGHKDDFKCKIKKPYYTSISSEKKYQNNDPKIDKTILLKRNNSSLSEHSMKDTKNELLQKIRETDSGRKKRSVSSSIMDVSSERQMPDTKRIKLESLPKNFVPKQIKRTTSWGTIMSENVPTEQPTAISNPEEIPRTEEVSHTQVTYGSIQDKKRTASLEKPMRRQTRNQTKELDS
# B1: ATP synthase subunit O, human; sequence looked up; chain FAKLVRPPVQVYGIEGRYATALYSAASKQNKLEQVEKELLRVAQILKEPKVAASVLNPYVKRSIKVKSLNDITAKERFSPLTTNLINLLAENGRLSNTQGVVSAFSTMMSVHRGEVPCTVTSASPLEEATLSELKTVLKSFLSQGQVLKLEAKTDPSILGGMIVRIGEKYVDMSVKTKIQKLGRAMREIV
# B2: human SCYL2; sequence looked up; chain MESMLNKLKSTVTKVTADVTSAVMGNPVTREFDVGRHIASGGNGLAWKIFNGTKKSTKQEVAVFVFDKKLIDKYQKFEKDQIIDSLKRGVQQLTRLRHPRLLTVQHPLEESRDCLAFCTEPVFASLANVLGNWENLPSPISPDIKDYKLYDVETKYGLLQVSEGLSFLHSSVKMVHGNITPENIILNKSGAWKIMGFDFCVSSTNPSEQEPKFPCKEWDPNLPSLCLPNPEYLAPEYILSVSCETASDMYSLGTVMYAVFNKGKPIFEVNKQDIYKSFSRQLDQLSRLGSSSLTNIPEEVREHVKLLLNVTPTVRPDADQMTKIPFFDDVGAVTLQYFDTLFQRDNLQKSQFFKGLPKVLPKLPKRVIVQRILPCLTSEFVNPDMVPFVLPNVLLIAEECTKEEYVKLILPELGPVFKQQEPIQILLIFLQKMDLLLTKTPPDEIKNSVLPMVYRALEAPSIQIQELCLNIIPTFANLIDYPSMKNALIPRIKNACLQTSSLAVRVNSLVCLGKILEYLDKWFVLDDILPFLQQIPSKEPAVLMGILGIYKCTFTHKKLGITKEQLAGKVLPHLIPLSIENNLNLNQFNSFISVIKEMLNRLESEHKTKLEQLHIMQEQQKSLDIGNQMNVSEEMKVTNIGNQQIDKVFNNIGADLLTGSESENKEDGLQNKHKRASLTLEEKQKLAKEQEQAQKLKSQQPLKPQVHTPVATVKQTKDLTDTLMDNMSSLTSLSVSTPKSSASSTFTSVPSMGIGMMFSTPTDNTKRNLTNGLNANMGFQTSGFNMPVNTNQNFYSSPSTVGVTKMTLGTPPTLPNFNALSVPPAGAKQTQQRPTDMSALNNLFGPQKPKVSMNQLSQQKPNQWLNQFVPPQGSPTMGSSVMGTQMNVIGQSAFGMQGNPFFNPQNFAQPPTTMTNSSSASNDLKDLFG
# B3: IGF2BP2 (Homo sapiens, UniProt Q9Y6M1); chain MMNKLYIGNLSPAVTADDLRQLFGDRKLPLAGQVLLKSGYAFVDYPDQNWAIRAIETLSGKVELHGKIMEVDYSVSKKLRSRKIQIRNIPPHLQWEVLDGLLAQYGTVENVEQVNTDTETAVVNVTYATREEAKIAMEKLSGHQFENYSFKISYIPDEEVSSPSPPQRAQRGDHSSREQGHAPGGTSQARQIDFPLRILVPTQFVGAIIGKEGLTIKNITKQTQSRVDIHRKENSGAAEKPVTIHATPEGTSEACRMILEIMQKEADETKLAEEIPLKILAHNGLVGRLIGKEGRNLKKIEHETGTKITISSLQDLSIYNPERTITVKGTVEACASAEIEIMKKLREAFENDMLAVNQQANLIPGLNLSALGIFSTGLSVLSPPAGPRGAPPAAPYHPFTTHSGYFSSLYPHHQFGPFPHHHSYPEQEIVNLFIPTQAVGAIIGKKGAHIKQLARFAGASIKIAPAEGPDVSERMVIITGPPEAQFKAQGRIFGKLKEENFFNPKEEVKLEAHIRVPSSTAGRVIGKGGKTVNELQNLTSAEVIVPRDQTPDENEEVIVRIIGHFFASQTAQRKIREIVQQVKQQEQKYPQGVASQRSK
# B4: Bet v 4 dimer (Betula, UniProt Q39419); chain MADDHPQDKAERERIFKRFDANGDGKISAAELGEALKTLGSITPDEVKHMMAEIDTDGDGFISFQEFTDFGRANRGLLKDVAKIF
# UniProt Q04410, sequence (whole entry, looked up): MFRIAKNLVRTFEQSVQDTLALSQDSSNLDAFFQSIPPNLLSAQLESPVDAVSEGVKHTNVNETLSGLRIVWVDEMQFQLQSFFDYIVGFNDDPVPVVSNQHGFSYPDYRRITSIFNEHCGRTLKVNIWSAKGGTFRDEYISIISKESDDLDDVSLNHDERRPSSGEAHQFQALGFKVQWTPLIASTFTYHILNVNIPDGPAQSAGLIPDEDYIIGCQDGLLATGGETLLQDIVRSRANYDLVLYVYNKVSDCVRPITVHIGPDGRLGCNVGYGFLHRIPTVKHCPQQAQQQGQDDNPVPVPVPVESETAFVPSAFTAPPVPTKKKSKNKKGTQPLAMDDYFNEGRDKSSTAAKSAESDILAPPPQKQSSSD
# UniProt P02649, sequence (whole entry, looked up): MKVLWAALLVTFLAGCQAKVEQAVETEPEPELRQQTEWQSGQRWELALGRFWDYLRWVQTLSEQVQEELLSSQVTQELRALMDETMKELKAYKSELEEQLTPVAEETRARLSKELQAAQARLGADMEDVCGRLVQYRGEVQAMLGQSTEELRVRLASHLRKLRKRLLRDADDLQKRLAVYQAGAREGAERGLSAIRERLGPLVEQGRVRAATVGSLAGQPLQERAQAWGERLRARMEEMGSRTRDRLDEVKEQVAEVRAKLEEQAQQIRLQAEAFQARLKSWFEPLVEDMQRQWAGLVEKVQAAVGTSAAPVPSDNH
Molecule,target or system,assay,test system,conditions,how to read,measurement,value
"CDH3 ectodomain, soluble (Xenopus)",itself,AUC,,monomer-dimer fit,,subunits per oligomer,2
"ACAT1 fragment, pY407 (Homo sapiens)",itself,native gel,,"phosphorylated, wild type",,subunits per oligomer,4
"B1 (ATP synthase subunit O, human)",PP6C (human),"co-immunoprecipitation, IP-MS",CYB5R4 knockout cells,concentration not given,reference: CYB5R4 knockout over parental,log2 fold change,-2.98
GCN2 HisRS-like domain (Chaetomium thermophilum),itself,SEC-MALS,,,,subunits per oligomer,2
IGKC CL domain (Homo sapiens),itself,SEC,,,,subunits per oligomer,2
"Diaph1 FH1-FH2-C, SNAP-surface-649 dye label (Mus musculus)",itself,single-molecule photobleaching step counting,,,,subunits per oligomer,2
ERF fragment (Homo sapiens),itself,cross-linking,,no DNA,,subunits per oligomer,2
"hfq fragment R16A, dansyl label (Escherichia coli)",itself,native gel,,,,subunits per oligomer,6
"aceF catalytic domain , homotrimer (Escherichia coli)",itself,AUC,,,,subunits per oligomer,3
SULT2A1 fragment (Homo sapiens),itself,SEC,,,,subunits per oligomer,2
B2 (human SCYL2),CYB5R4 knockout human cells,"PP4 interaction, 3xFLAG-PP4C IP-MS",,concentration not given,reference: CYB5R4 KO over parental,log2 fold change,0.81
Gl2 bHLH domain (Gossypium hirsutum),itself,SEC-MALS,,,,subunits per oligomer,4
popZ fragment (Caulobacter crescentus),itself,AUC,,25 °C,,subunits per oligomer,6
P2-RANTES fragment,itself,crystal structure,,,,subunits per oligomer,4
PopZ del110-122 (Caulobacter crescentus),itself,sedimentation velocity AUC,,"25 °C, no MgCl2",,subunits per oligomer,6
CAMK2D F368A (Homo sapiens),itself,mass photometry,,,,subunits per oligomer,14
sodN mature E17R/R47E (Streptomyces coelicolor),itself,SEC,,,,subunits per oligomer,6 and 3
ALDH7A1 fragment R441C (Homo sapiens),itself,AUC,,together with: NAD 1 mM,,subunits per oligomer,4
HSP90 fragment (Plasmodium falciparum),itself,mass photometry,,,,subunits per oligomer,2
comFB (Treponema denticola),itself,SEC-MALS,,,,subunits per oligomer,2
mgtE (Bacillus firmus),itself,SEC,,,,subunits per oligomer,2
"UDP-2,3-diacylglucosamine hydrolase D225A (Caulobacter crescentus)",itself,SEC,,,,subunits per oligomer,2
Cas5 full length (Moraxella),itself,SEC-MALS,,,,subunits per oligomer,2
SIR2 (Paenibacillus sp.),itself,AUC,,,,subunits per oligomer,12
B3 (IGF2BP2),itself,mass photometry,,,,subunits per oligomer,2 and 4
"Grh1, N-terminal acetylation (yeast, UniProt Q04410)",itself,dynamic light scattering,,,,subunits per oligomer,2
ALD1 fragment (Toxoplasma gondii),itself,crystal structure,,,,subunits per oligomer,4
ccmK2 fragment H75N (Synechococcus elongatus),itself,SEC,,,,subunits per oligomer,6
cyanophycin synthetase 2,itself,cryo-EM,,,,subunits per oligomer,6
KL fragment (Homo sapiens),itself,SEC,,,,subunits per oligomer,2
MXAN_1565 GAF domain (Myxococcus xanthus),itself,SEC,,,,subunits per oligomer,2
"APOE apoE4 (Homo sapiens, UniProt P02649)",itself,AUC,,30 µM,,subunits per oligomer,4
"CDKN2A (Homo sapiens, UniProt Q8N726)",itself,SEC-MALS,,,,subunits per oligomer,10
eutT ATP:Co(I)rrinoid adenosyltransferase (Listeria monocytogenes),itself,SEC,,,,subunits per oligomer,4
B4 (Bet v 4 dimer),itself,SEC,,,,subunits per oligomer,2
Tln1 fragment (Mus musculus),itself,SEC-MALS,,,,subunits per oligomer,2
"Trpv2 (Rattus norvegicus, UniProt Q9WUD2)","T1, itself",SEC,,,,subunits per oligomer,4
sodN mature R47A (Streptomyces coelicolor),itself,ESI-MS,,denaturing conditions,,subunits per oligomer,6
Maackia amurensis mitogenic lectin (Maackia amurensis),itself,nonreducing SDS-PAGE,,,,subunits per oligomer,2
LECA (Pisum sativum),itself,SAXS,,,,subunits per oligomer,2
AAUCUUUUG (ssRNA),U2AF2,sequencing of bound RNA,RNA,motif only,,Kd,13.3 µM
"GAPDH fragment, leucine-F covalently linked (Homo sapiens)",itself,crystal structure,,,,subunits per oligomer,4
"Dpb11 (Saccharomyces cerevisiae, UniProt P47027)","T2, itself",mass photometry,,,,subunits per oligomer,2
clcA fragment C85A/H234C/I422A/L423A/I426A/L430A/L434A (Escherichia coli),itself,SEC,,,,subunits per oligomer,2
CUUGCUCUU (ssRNA),U2AF2,sequencing of bound RNA,RNA,motif only,,Kd,0.84 µM
popZ (Caulobacter crescentus),itself,mass photometry,,250 nM,,subunits per oligomer,3 and 6
